Assay results from different studies.
A part holds a random share of what one study measured. Changes are numbered by the printed parent chain.
Chain of UniProt Q96LR5 (whole entry, looked up): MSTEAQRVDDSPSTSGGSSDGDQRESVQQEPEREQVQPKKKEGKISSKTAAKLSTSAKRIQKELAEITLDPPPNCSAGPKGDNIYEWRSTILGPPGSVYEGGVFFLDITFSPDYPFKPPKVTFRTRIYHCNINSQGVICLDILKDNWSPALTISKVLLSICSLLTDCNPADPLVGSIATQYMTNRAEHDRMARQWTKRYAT
Chain of UniProt Q5VVX9 (whole entry, looked up): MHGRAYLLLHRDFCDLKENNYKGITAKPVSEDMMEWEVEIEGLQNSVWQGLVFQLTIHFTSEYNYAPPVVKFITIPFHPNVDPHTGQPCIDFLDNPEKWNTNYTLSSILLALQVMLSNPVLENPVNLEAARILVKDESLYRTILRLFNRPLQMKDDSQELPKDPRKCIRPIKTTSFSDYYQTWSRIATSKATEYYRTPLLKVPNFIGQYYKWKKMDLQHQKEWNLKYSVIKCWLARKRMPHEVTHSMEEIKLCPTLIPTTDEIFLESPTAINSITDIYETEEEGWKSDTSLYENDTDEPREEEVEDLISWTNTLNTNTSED
Chain of UniProt P60604 (whole entry, looked up): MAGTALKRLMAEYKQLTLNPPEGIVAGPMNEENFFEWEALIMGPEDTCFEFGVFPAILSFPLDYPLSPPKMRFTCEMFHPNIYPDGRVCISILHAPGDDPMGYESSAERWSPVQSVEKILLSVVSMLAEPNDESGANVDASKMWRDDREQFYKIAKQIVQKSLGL
Chain of UniProt P49427 (whole entry, looked up): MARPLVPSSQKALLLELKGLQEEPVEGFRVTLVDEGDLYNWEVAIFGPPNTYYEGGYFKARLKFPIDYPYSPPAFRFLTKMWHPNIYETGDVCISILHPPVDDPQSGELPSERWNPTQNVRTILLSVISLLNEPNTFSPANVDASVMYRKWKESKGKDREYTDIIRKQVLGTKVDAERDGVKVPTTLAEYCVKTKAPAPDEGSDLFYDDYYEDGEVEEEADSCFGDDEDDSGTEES
Chain of UniProt P61088 (whole entry, looked up): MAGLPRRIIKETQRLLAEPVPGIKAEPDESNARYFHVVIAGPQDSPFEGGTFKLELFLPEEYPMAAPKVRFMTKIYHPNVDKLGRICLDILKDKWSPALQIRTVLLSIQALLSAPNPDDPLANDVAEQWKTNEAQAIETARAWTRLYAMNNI
Chain of UniProt P62256 (whole entry, looked up): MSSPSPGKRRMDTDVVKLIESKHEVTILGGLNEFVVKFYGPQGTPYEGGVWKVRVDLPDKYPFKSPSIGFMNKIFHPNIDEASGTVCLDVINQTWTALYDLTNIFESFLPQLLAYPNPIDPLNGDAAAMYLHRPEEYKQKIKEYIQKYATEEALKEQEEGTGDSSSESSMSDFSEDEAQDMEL

Study 1 — method: DHFR PCA, deep sequencing; sample: yeast; added: (+)-ABA 0 µM; baseline: wild-type fitted maximum; reading: higher = stronger binding
Target: ABI1, truncated, D143A, DHFR fusion (Arabidopsis thaliana)
Setting: methotrexate growth selection, single substitutions
Starting sequence: PYL1, truncated, DHFR fusion (Arabidopsis thaliana); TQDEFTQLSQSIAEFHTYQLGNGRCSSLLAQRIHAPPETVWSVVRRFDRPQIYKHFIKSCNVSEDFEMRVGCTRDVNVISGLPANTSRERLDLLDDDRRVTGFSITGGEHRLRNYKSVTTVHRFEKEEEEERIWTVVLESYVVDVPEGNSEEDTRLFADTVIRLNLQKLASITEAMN; partner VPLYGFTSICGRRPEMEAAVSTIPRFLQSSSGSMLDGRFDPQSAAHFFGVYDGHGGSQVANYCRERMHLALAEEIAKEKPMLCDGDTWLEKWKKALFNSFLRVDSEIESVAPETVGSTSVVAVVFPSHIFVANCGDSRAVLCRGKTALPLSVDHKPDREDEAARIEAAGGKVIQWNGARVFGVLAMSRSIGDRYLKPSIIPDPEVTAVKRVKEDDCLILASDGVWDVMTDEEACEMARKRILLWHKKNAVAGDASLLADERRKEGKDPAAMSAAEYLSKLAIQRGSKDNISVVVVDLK
Variant | relative binding score [%]
E151P | 38.2
L112C | -0.928
E4D | 14.3
D97L | -3.96
M68K | 0.499
G23T | 0.823
E14C | 2.33
E125H | 31.9

Study 2 — method: yeast two-hybrid; sample: yeast; setting: mostly zero background; baseline: not given; reading: higher = stronger interaction
Molecule: PEELQAMDNVCIICREEMVTGAKRLPCNHIFHTSCLRSWFQRQQTCPTCRMDVLRASLPA (SYVN1 RING domain (UniProt Q86TM6))
target | lacZ reporter activity
UBE2H UBC core domain (UniProt P62256) | 0
UBE2G2 UBC core domain (UniProt P60604) | 0
UBE2N UBC core domain (UniProt P61088) | 0
UBE2U UBC core domain (UniProt Q5VVX9) | 8720
CDC34 UBC core domain (UniProt P49427) | 0
UBE2E2 UBC core domain (UniProt Q96LR5) | 0

Single results of other studies
P1: viral docking peptide; YKVKRRLVFGADD; partner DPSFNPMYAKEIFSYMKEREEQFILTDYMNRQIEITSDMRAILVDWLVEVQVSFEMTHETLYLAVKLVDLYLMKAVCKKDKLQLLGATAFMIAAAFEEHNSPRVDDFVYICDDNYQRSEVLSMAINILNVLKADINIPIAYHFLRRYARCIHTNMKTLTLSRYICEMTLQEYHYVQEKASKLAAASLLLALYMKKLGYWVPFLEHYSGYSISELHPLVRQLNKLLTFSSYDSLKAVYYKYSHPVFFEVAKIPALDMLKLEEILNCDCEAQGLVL
Substance | target or system | assay | test system | setting | how to read | measurement | value
P1 F9G | CCNB3, cyclin fold, Cln2 fusion (human) | yeast growth competition, sequencing | yeast | strong parent motif | baseline: not given, higher = stronger binding | normalised enrichment score | 0.0432
SMC2 (Homo sapiens, UniProt O95347) | KRT8 (Homo sapiens, UniProt P05787) | cross-linking MS | cells | added: BSPNO |  | cross-linked residues | K772 to K198

For quick reference, copied from above (study 1):
Variant | relative binding score [%]
M68K | 0.499
E151P | 38.2
